Measurements gathered from unrelated publications.
Protocols differ between the studies behind these lines.
Organism: Staphylococcus aureus

Structure (SMILES) = CN[C@H](CC(C)C)C(=O)N[C@H]1C(=O)N[C@@H](CC(N)=O)C(=O)N[C@H]2C(=O)N[C@H]3C(=O)N[C@H](C(=O)N[C@H](C(=O)O)c4cc(O)cc(O)c4-c4cc3ccc4O)[C@H](O)c3ccc(c(Cl)c3)Oc3cc2cc(c3O[C@@H]2O[C@H](CO)[C@@H](O)[C@H](O)[C@H]2O[C@H]2C[C@](C)(NCc3ccc(OCc4cn(CC(=O)N[C@H](C(=O)N[C@@H](CCN)C(=O)N[C@H]5CCNC(=O)[C@H]([C@@H](C)O)NC(=O)[C@H](CCN)NC(=O)[C@H](CCN)NC(=O)[C@H](CC(C)C)NC(=O)[C@@H](CC(C)C)NC(=O)[C@H](CCN)NC5=O)[C@@H](C)O)nn4)c(OC)c3)[C@H](O)[C@H](C)O2)Oc2ccc(cc2Cl)[C@H]1O; assay = broth microdilution; system = MRSA USA300, cation-adjusted Mueller-Hinton broth; conditions = 20 to 24 h, 37 °C, 0.002% polysorbate 80; MIC = 0.25 µg/mL
Structure (SMILES) = CCCCCCCCCCCCCCCCCCn1cc(CN(CCC(=O)NCCN(CCC(=O)NCCN(CCC(=O)NCCN(C)C)CCC(=O)NCCN(C)C)CCC(=O)NCCN(CCC(=O)NCCN(C)C)CCC(=O)NCCN(C)C)CCC(=O)NCCN(CCC(=O)NCCN(CCC(=O)NCCN(C)C)CCC(=O)NCCN(C)C)CCC(=O)NCCN(CCC(=O)NCCN(C)C)CCC(=O)NCCN(C)C)nn1; system = ATCC 43300 MRSA, LB broth; conditions = 18 h; MIC = > 96 µg/mL
Structure (SMILES) = CCCCCCCC[N+](C)(C)CCCCCCCCOc1cc(OCCCCCCCC[N+](C)(C)CCCCCCCC)cc(OCCCCCCCC[N+](C)(C)CCCCCCCC)c1.[Br-].[Br-].[Br-]; system = SH1000 MSSA; MIC = 1 µM
Structure (SMILES) = CC[C@H]1OC(=O)[C@H](C)C(=O)[C@H](C)[C@@H](O[C@@H]2O[C@H](C)C[C@H](N(C)C)[C@H]2O)[C@](C)(OC)C[C@@H](C)C(=O)[C@H](C)[C@H]2N(CCCCn3cnc(-c4cccnc4)c3)C(=O)O[C@]12C; system = DSM 20231 MSSA; MIC = 0.3 µg/mL
Structure (SMILES) = CCCCCCC#Cc1cncc(-c2nnc(SCc3cc([N+](=O)[O-])cc([N+](=O)[O-])c3)n2C)c1; assay = microbial growth, broth dilution; system = ATCC29213; MIC = > 64 µg/mL
Structure (SMILES) = COc1cccc(OC)c1C(=O)N[C@@H]1C(=O)N2[C@@H]1SC(C)(C)[C@@H]2C(=O)O; assay = microbial growth, broth dilution; system = 29213; MIC = 4 µM
Structure (SMILES) = CC[C@H]1OC(=O)[C@H](C)[C@@H](OC(=O)Cc2ccc(N(C)C)cc2)[C@H](C)[C@@H](O[C@@H]2O[C@H](C)C[C@H](N(C)C)[C@H]2O)[C@](C)(OC)C[C@@H](C)C(=O)[C@H](C)[C@@H](O)[C@]1(C)O; system = BAA-977; MIC = 64 µg/mL
Structure (SMILES) = C[C@@H]1C(=O)O[C@@H](C)/C=C/C=C\[C@@H](C)[C@@H]2C=C[C@@H]3C[C@@]4(C)O[C@H]4[C@@H](C)[C@H]3[C@@H]2C(=O)C(Cl)(Cl)C1=O; system = MSSA clinical isolate; conditions = PEN ERY TET resistant; MIC = 0.05 µg/mL
Structure (SMILES) = COc1nc(C(=O)Nc2ccc(C(=O)O)nc2OC)ccc1NC(=O)c1ccc(NC(=O)[C@H](Cc2c[nH]nn2)NC(=O)c2ccc(NC(=O)/C(C)=C/c3ccc(O)cc3)cc2)cc1; assay = broth microdilution; system = ciprofloxacin-resistant; MIC = 16 µg/mL
Structure (SMILES) = COc1ccc(/N=N/C(=S)N2CCN(C)CC2)cc1; assay = microbial growth, broth dilution; system = ATCCBAA44 MRSA; conditions = 24 h; MIC = > 50 µM
Structure (SMILES) = CCCCCCn1cc[n+](CCCCCCCCCCOc2cc(OCCCCCCCCCC[n+]3ccn(CCCCCC)c3)cc(OCCCCCCCCCC[n+]3ccn(CCCCCC)c3)c2)c1.[Br-].[Br-].[Br-]; system = SH1000 MSSA; MIC = 2 µM
Structure (SMILES) = COc1cc(C(=O)Nc2ccc(C(=O)O)c(O)c2OC)ccc1NC(=O)c1ccc(NC(=O)[C@H](Cc2c[nH]nn2)NC(=O)c2ccc(NC(=O)/C(C)=C/c3ccc(O)cc3)cc2)cc1; assay = broth microdilution; system = ciprofloxacin-resistant; MIC = 16 µg/mL
Structure (SMILES) = CC[C@H]1OC(=O)[C@H](C)[C@@H](OC(=O)Cc2ccc(OC)cc2)[C@H](C)[C@@H](O[C@@H]2O[C@H](C)C[C@H](N(C)C)[C@H]2O)[C@](C)(OC)C[C@@H](C)C(=O)[C@H](C)[C@@H](O)[C@]1(C)O; system = DSM 20231 MSSA; MIC = 8 µg/mL
Structure (SMILES) = C=CCOc1c(C)c(OC)c(C(=O)/C=C/c2ccccc2)c(OCC=C)c1C; assay = microbial growth, broth dilution; system = ATCC25923; MIC = 5000 µg/mL
Structure (SMILES) = CC(C)C/C=C/C=C\C(=O)N[C@@H](CC(N)=O)C(=O)N[C@@H]1C(=O)N[C@H](c2ccc(O)cc2)C(=O)N[C@H](CCCN)C(=O)N[C@H]([C@@H](C)O)C(=O)N[C@@H](c2ccc(O)cc2)C(=O)N[C@H](c2ccc(O)cc2)C(=O)N[C@@H]([C@H](C)O)C(=O)N[C@@H](Cc2ccccc2)C(=O)N[C@H](CCCN)C(=O)N[C@@H](c2ccc(O[C@H]3O[C@H](CO)[C@@H](O)[C@H](O)[C@@H]3O[C@H]3O[C@H](CO)[C@@H](O)[C@H](O)[C@@H]3O)cc2)C(=O)N[C@H]([C@@H](C)O)C(=O)N[C@@H](c2ccc(O)cc2)C(=O)NCC(=O)N[C@@H](CC(C)C)C(=O)N[C@H](C)C(=O)N[C@@H](c2ccc(O)c(Cl)c2)C(=O)O[C@@H]1C(N)=O; system = MSSA ATCC 29213; MIC = 1 µM
Structure (SMILES) = CC[C@H]1OC(=O)[C@H](C)[C@@H](OC(=O)Cc2ccc3c(c2)OCO3)[C@H](C)[C@@H](O[C@@H]2O[C@H](C)C[C@H](N(C)C)[C@H]2O)[C@](C)(OC)C[C@@H](C)C(=O)[C@H](C)[C@@H](O)[C@]1(C)O; system = BAA-977; MIC = 0.5 µg/mL
Structure (SMILES) = CCOc1c(NC(=O)c2ccc(NC(=O)[C@H](Cc3c[nH]nn3)NC(=O)c3ccc(NC(=O)/C(C)=C/c4ccc(O)cc4)cc3)cc2)ccc(C(=O)Nc2ccc(C(=O)O)c(O)c2OC)c1O; assay = broth microdilution; system = ciprofloxacin-sensitive; MIC = 0.063 µg/mL
Structure (SMILES) = CCCCCCCCn1cc[n+](CCCCOc2cc(OCCCC[n+]3ccn(CCCCCCCC)c3)cc(OCCCC[n+]3ccn(CCCCCCCC)c3)c2)c1.[Br-].[Br-].[Br-]; system = SH1000 MSSA; MIC = 0.5 µM
Structure (SMILES) = CC[C@H](C)[C@H](N)C1=N[C@H](C(=O)N[C@@H](CC(C)C)C(=O)N[C@H](CCC(=O)O)C(=O)N[C@H](C(=O)N[C@H]2CCCCNC(=O)[C@H](CC(N)=O)NC(=O)[C@@H](CC(=O)O)NC(=O)[C@H](Cc3c[nH]cn3)NC(=O)[C@@H](Cc3ccccc3)NC(=O)[C@H]([C@@H](C)CC)NC(=O)[C@@H](CCCN)NC2=O)[C@@H](C)CC)CS1; system = ATCC 29213 methicillin-susceptible; conditions = 18 h, 37 °C, 0.3 mM ZnSO4 LB; MIC = 2 µg/mL
Structure (SMILES) = C#CCNC(=O)[C@H]1NC(=O)[C@H]2NC(=O)[C@H](NC(=O)[C@@H]3NC(=O)[C@H](CC(N)=O)NC(=O)[C@H](NC(=O)[C@@H](CC(C)C)NC)[C@H](O)c4ccc(c(Cl)c4)Oc4cc3cc(c4O[C@@H]3O[C@H](CO)[C@@H](O)[C@H](O)[C@H]3O[C@H]3C[C@](C)(N)[C@H](O)[C@H](C)O3)Oc3ccc(cc3Cl)[C@H]2O)c2ccc(O)c(c2)-c2c(O)cc(O)cc21; assay = broth microdilution; system = MRSA USA300, cation-adjusted Mueller-Hinton broth; conditions = 20 to 24 h, 37 °C, 0.002% polysorbate 80; MIC = 0.5 µg/mL
Structure (SMILES) = CC[C@H](C)[C@@H]1NC(=O)[C@H](CCC(=O)O)NC(=O)[C@@H]2CSSC[C@@H]3NC(=O)[C@H](Cc4ccc(O)cc4)NC(=O)[C@@H](NC(=O)[C@@H](NC(=O)[C@H](C)N)[C@@H](C)O)CSSC[C@@H](C(=O)N[C@@H](CCCNC(=N)N)C(=O)O)NC(=O)[C@H](CSSC[C@H](NC(=O)[C@H](CCCNC(=N)N)NC(=O)CNC(=O)[C@H]([C@@H](C)O)NC(=O)[C@H](CCCNC(=N)N)NC3=O)C(=O)N[C@@H](C)C(=O)N[C@@H]([C@@H](C)O)C(=O)N[C@@H](CCCNC(=N)N)C(=O)N[C@@H](CCC(=O)O)C(=O)N[C@@H](CO)C(=O)N[C@@H](CC(C)C)C(=O)N[C@@H](CO)C(=O)NCC(=O)N[C@@H](C(C)C)C(=O)N2)NC(=O)[C@H](CC(C)C)NC(=O)[C@H](CCCNC(=N)N)NC(=O)[C@H](Cc2ccc(O)cc2)NC(=O)[C@H](CC(C)C)NC(=O)[C@H](CCCNC(=N)N)NC(=O)CNC(=O)[C@H](CO)NC1=O; assay = broth turbidity; system = USA300; MIC = 11.2 µg/mL
Structure (SMILES) = CC[C@H](C)[C@H](N)C1=N[C@H](C(=O)N[C@@H](CC(C)C)C(=O)N[C@H](CCC(=O)O)C(=O)N[C@H](C(=O)N[C@H]2CCCCNC(=O)[C@H](CC(N)=O)NC(=O)[C@@H](CC(=O)O)NC(=O)[C@H](Cc3c[nH]cn3)NC(=O)[C@@H](Cc3ccccc3)NC(=O)[C@H]([C@@H](C)CC)NC(=O)[C@@H](CCCN)NC2=O)[C@@H](C)CC)CS1; system = USA300 MRSA; conditions = together with: ZnSO4 0.3 mM; MIC = 2 µg/mL
Structure (SMILES) = CC[C@H]1OC(=O)[C@H](C)[C@@H](OC(=O)Cc2cccc([N+](=O)[O-])c2)[C@H](C)[C@@H](O[C@@H]2O[C@H](C)C[C@H](N(C)C)[C@H]2O)[C@](C)(OC)C[C@@H](C)C(=O)[C@H](C)[C@@H](O)[C@]1(C)O; system = DSM 20231 MSSA; MIC = 0.5 µg/mL
Structure (SMILES) = CCCCCCCCCC[N+](C)(C)CCCCCCCCOc1cc(OCCCCCCCC[N+](C)(C)CCCCCCCCCC)cc(OCCCCCCCC[N+](C)(C)CCCCCCCCCC)c1.[Br-].[Br-].[Br-]; system = SH1000 MSSA; MIC = 2 µM
Structure (SMILES) = N=C(N)NCCC[C@@H]1NC(=O)[C@H](CCCNC(=N)N)NC(=O)[C@@H](CCCNC(=N)N)NC(=O)[C@@H](CCCNC(=N)N)NC(=O)[C@@H](C(c2ccccc2)c2ccccc2)NC(=O)[C@H](Cc2c[nH]c3ccccc23)NC(=O)[C@@H](C(c2ccccc2)c2ccccc2)NC1=O; system = ATCC 29213, MSSA; MIC = 4 µg/mL
Structure (SMILES) = CCC(CC)c1cc(CCN2CCCN(S(=O)(=O)c3ccc(C)cc3)CC2)nc(-c2ccccn2)n1; assay = microbial growth, broth dilution; system = ATCC29213; MIC = > 16 µg/mL
Structure (SMILES) = CC[C@H]1OC(=O)[C@H](C)[C@@H](OC(=O)Cc2ccc(C(F)(F)F)cc2)[C@H](C)[C@@H](O[C@@H]2O[C@H](C)C[C@H](N(C)C)[C@H]2O)[C@](C)(OC)C[C@@H](C)C(=O)[C@H](C)[C@@H](O)[C@]1(C)O; system = ATCC 43300 MRSA; MIC = 64 µg/mL
Structure (SMILES) = COc1nc(C(=O)O)ccc1NC(=O)c1ccc(NC(=O)c2ccc(NC(=O)[C@H](Cc3c[nH]nn3)NC(=O)c3ccc(NC(=O)/C(C)=C/c4ccc(O)cc4)cc3)cc2)c(OC)c1O; assay = broth microdilution; system = ciprofloxacin-sensitive; MIC = 16 µg/mL
Structure (SMILES) = CCCCCCCCCCn1cc[n+](CCCCOc2cc(OCCCC[n+]3ccn(CCCCCCCCCC)c3)cc(OCCCC[n+]3ccn(CCCCCCCCCC)c3)c2)c1.[Br-].[Br-].[Br-]; system = HA-MRSA ATCC 33591; MIC = 1 µM
Structure (SMILES) = CC[C@H]1OC(=O)[C@H](C)[C@@H](OC(=O)Cc2cccc(Cl)c2)[C@H](C)[C@@H](O[C@@H]2O[C@H](C)C[C@H](N(C)C)[C@H]2O)[C@](C)(OC)C[C@@H](C)C(=O)[C@H](C)[C@@H](O)[C@]1(C)O; system = DSM 20231 MSSA; MIC = 4 µg/mL
Structure (SMILES) = CCCCCCCCCCn1cc[n+](CCCCCCOc2cc(OCCCCCC[n+]3ccn(CCCCCCCCCC)c3)cc(OCCCCCC[n+]3ccn(CCCCCCCCCC)c3)c2)c1.[Br-].[Br-].[Br-]; system = CA-MRSA USA300-0114; MIC = 2 µM
Structure (SMILES) = COc1cc(Cc2cnc(N)nc2N)cc(OC)c1OC.O=c1[nH]cc(F)c(=O)[nH]1; assay = broth microdilution; conditions = 24 h; MIC = 4 µg/mL
Structure (SMILES) = CCCCCC[N+](C)(C)CCCCOc1cc(OCCCC[N+](C)(C)CCCCCC)cc(OCCCC[N+](C)(C)CCCCCC)c1.[Br-].[Br-].[Br-]; system = CA-MRSA USA300-0114; MIC = 63 µM
Structure (SMILES) = CC[C@H]1OC(=O)[C@H](C)[C@@H](OC(=O)Cc2ccc(Cl)cc2)[C@H](C)[C@@H](O[C@@H]2O[C@H](C)C[C@H](N(C)C)[C@H]2O)[C@](C)(OC)C[C@@H](C)C(=O)[C@H](C)[C@@H](O)[C@]1(C)O; system = ATCC 43300 MRSA; MIC = > 128 µg/mL
